Experimental data from different studies.
Numbered parts are unrelated; each lists some results of a single study.

Block 1 — method: protein binding microarray; molecule type: double-stranded DNA, one strand shown; sample: in vitro; tested at: not given; baseline: not given; direction: higher = stronger binding
Target: Histone acetyltransferase KAT6A, both winged helices, GST fusion (KAT6A, Homo sapiens, UniProt Q92794, residues 1-181)
Notes: 8-mer, flanks averaged, mean of 2 arrays, mostly near background
Target sequence (chain): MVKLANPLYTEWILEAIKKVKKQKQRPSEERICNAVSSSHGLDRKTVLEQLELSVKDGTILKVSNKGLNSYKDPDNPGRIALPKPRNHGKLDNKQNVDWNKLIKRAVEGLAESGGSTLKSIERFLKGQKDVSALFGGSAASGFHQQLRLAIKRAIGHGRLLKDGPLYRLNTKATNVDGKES
With `GCAACCAA` the E-score was -0.088.
`CGAGCCAC` has an E-score of 0.0211.
`ATGCACCA` has an E-score of -0.0535.
The E-score of `GGCGATCA` is reported as 0.127.
For `AAAATGCC`, the E-score was -0.109.
With `ATATGGCG` the E-score was 0.147.

Block 2 — method: RNA Bind-n-Seq; molecule type: RNA; sample: in vitro; tested at: 365 nM; baseline: no-protein control; direction: higher = stronger binding
Target: RNA binding protein fox-1 homolog 2, RRM domain, GST-SBP tag (RBFOX2, Homo sapiens, UniProt O43251-10, residues 100-194)
Notes: natural RNA segment, single round, ends assumed
Constant ends, left off below: GGGAGUUCUACAGUCCGACGAUC … UGGAAUUCUCGGGUGCCAA
For `CAUCCUGGUUUCCACCCCGGGCUGGCUAGCUCUGUUGGUUUGAAGACUGACAGCCAGCCUGGCUCAUUCUCAUUAUUGGCUAGUUAGCUUUCUUUAUCAACCUGCUCACU`, “RBNS enrichment (R)” read 0.403.
`UAAAUGCUCUUAUUUUUCCAACAGCUUAACUACUCCUAGUUCAAGAGUGUCCCUUAGCCUUCCUUGCAACCAGAGUAUUUUUGUACAGAUUUGCUUUCUCCUAAACAAAC` — result for “RBNS enrichment (R)”: 0.54.
`GGGAUGGGGUGAAGCCCAGAGUGGGGGGGGGCAAGGUGUUCUCCCUCUGCAAGUGGAAUGUUACCCUGUGGGUGGCUGGGUCCAACAGGGUCCCUCCUGUCCCCCCUCUU` — result for “RBNS enrichment (R)”: 0.61.
For `AUAGCUCCUGGACCCAAGCCCAAGGCCCAGCCUGGGACAAGGCUCCGAGGGUCGGCUGGCCGGAGCUAUUUUUACCUCCCGCCUCCCCUGCUGGUCCCCCCACCUGACGU`, “RBNS enrichment (R)” read 0.499.
Under “RBNS enrichment (R)”, `CAUUUCUUGGCAUUGGAAUUCUACUGGAAAAAAAUACAAAAAGCAAAACAAAACCCUCAGCACUGUUACAAGAGGCCAUUUAAGUAUCUUGUGCUUCUUCACUUACCCAU` is recorded as 1.21.

Block 3 — method: universal PBM; molecule type: double-stranded DNA, one strand shown; sample: in vitro; tested at: not given; direction: higher = stronger binding
Target: Sal-like protein 4, full length isoform B (SALL4, Homo sapiens, UniProt Q9UJQ4-2, residues 1-616)
Notes: 8-mer, flanks averaged, mean of replicates
Residues (chain): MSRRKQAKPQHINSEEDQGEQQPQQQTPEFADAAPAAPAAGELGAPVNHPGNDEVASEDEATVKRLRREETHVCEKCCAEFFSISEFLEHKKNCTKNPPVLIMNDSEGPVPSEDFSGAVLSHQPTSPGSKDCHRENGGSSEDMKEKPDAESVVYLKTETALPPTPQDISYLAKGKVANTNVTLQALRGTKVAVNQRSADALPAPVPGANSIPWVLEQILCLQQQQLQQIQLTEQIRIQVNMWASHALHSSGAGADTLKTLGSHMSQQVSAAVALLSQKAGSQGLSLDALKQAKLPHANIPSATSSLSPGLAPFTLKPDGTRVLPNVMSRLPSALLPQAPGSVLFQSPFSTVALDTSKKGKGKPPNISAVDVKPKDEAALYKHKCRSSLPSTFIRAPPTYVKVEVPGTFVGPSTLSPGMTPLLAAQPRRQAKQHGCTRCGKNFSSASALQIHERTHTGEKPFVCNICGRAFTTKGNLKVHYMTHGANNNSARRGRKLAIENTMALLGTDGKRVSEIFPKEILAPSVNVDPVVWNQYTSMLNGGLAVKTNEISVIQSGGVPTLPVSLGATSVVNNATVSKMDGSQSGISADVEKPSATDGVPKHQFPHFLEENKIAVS
With `CGGTCAAC` the E-score was -0.239.
`AGAACTCC` gave an E-score of -0.095.
The E-score of `AGCGGCCC` is reported as -0.352.
`CTAGCACA` has an E-score of 0.0185.

Mixed results
`PhoQ, residues 284 288 289 292 302 303 GASLAW` has a fold induction of 0.545 (PhoP, residues 12 14 15 18 19 NQAHL (Escherichia coli, UniProt P23836); Sort-seq, refers to: YFP reporter; E. coli; PhoQ-PhoP variant library, added: 10 µM Mg2+; baseline: high Mg2+ state, higher = stronger signaling).

Excerpt of the above (block 2):
Under “RBNS enrichment (R)”, `CAUUUCUUGGCAUUGGAAUUCUACUGGAAAAAAAUACAAAAAGCAAAACAAAACCCUCAGCACUGUUACAAGAGGCCAUUUAAGUAUCUUGUGCUUCUUCACUUACCCAU` is recorded as 1.21.
For `AUAGCUCCUGGACCCAAGCCCAAGGCCCAGCCUGGGACAAGGCUCCGAGGGUCGGCUGGCCGGAGCUAUUUUUACCUCCCGCCUCCCCUGCUGGUCCCCCCACCUGACGU`, “RBNS enrichment (R)” read 0.499.
For `CAUCCUGGUUUCCACCCCGGGCUGGCUAGCUCUGUUGGUUUGAAGACUGACAGCCAGCCUGGCUCAUUCUCAUUAUUGGCUAGUUAGCUUUCUUUAUCAACCUGCUCACU`, “RBNS enrichment (R)” read 0.403.
